Measured values collected from several papers.
A part holds a random share of what one study measured. Positions count from the first letter of the parent shown.

Series 1
Target: Cyclic AMP-dependent transcription factor ATF-1 (ATF1, Homo sapiens, UniProt P18846, residues 1-271, full length assumed)
Technique: protein-binding microarray
Molecule type: double-stranded DNA, one strand shown
Medium: in vitro
Concentration: not given
Setting: k-mer, scored over probes, only values ≥0.25
Reading: higher = stronger binding
Residues (chain): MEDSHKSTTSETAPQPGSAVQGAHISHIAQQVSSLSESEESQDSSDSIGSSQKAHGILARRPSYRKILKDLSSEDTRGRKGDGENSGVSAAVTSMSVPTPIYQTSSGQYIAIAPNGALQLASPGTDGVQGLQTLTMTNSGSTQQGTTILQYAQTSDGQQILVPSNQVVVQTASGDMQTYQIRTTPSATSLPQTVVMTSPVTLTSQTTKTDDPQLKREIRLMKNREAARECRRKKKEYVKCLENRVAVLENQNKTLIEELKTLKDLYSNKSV
Oligonucleotide	E-score
ATGACCA	0.252
ACGTTAT	0.347
GCGTCAC	0.488
CCCGTCA	0.392
CGTCACC	0.483
ACGTATC	0.343
AACACGT	0.363
AAATGAC	0.294
ACATACG	0.333
CGTGAAG	0.252
CGTGACA	0.356
ATGACAC	0.336
CAACGTC	0.388
CACGTGC	0.256
CGTAAGC	0.251
CACGTGA	0.317
ATGTGAC	0.281
CGCGTCA	0.48
CGTAATA	0.345
CGTAGTA	0.266

Series 2
Target: RNA binding protein fox-1 homolog 2, RRM domain, GST-SBP tag (RBFOX2, Homo sapiens, UniProt O43251-10, residues 100-194)
Technique: RNA Bind-n-Seq
Molecule type: RNA
Medium: in vitro
Concentration: 365 nM
Setting: natural RNA segment, single round, ends assumed
Reference: no-protein control
Reading: higher = stronger binding
All sequences stand within: GGGAGUUCUACAGUCCGACGAUC … UGGAAUUCUCGGGUGCCAA
Construct (chain): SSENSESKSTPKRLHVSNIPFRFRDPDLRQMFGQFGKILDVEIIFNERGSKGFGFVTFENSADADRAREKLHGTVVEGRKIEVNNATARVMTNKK
Oligonucleotide	RBNS enrichment (R)
GAAACCUUGCAGAUUGCAGAGUUGAGAUGUGUUUUAUCUUUGUUUUAUAUUAAAAAGAUCUGUGGGAAAAUAAAGCCAGCCCUUGUUUUGGAUGUGUUGUUUCUGAAACC	0.478
AGUGCAGUGGCUCAAUCUCAGCUCACCACAACCUCUGCCUCCUGGCUUCAAGCGAUUCUUCUGCCUCAGCCUCCCCGAAUAGUUGGGAUUACAGGCACCCACCACCACGC	0.428
GAAAUUUGCAGCUUCUCUAGUUAGAAAUGUAUUUCUUACAGCUUUUUAAGACUUUGUCAUCCGUUCUAGUGUAUAUGCAGAGCCUGUUGUGUGUGUGGACUGGUUAUAGA	2.35
AAACUAAGGCUAUCAAGGAGUGAGAUAGAAUGAAGACACUCCUAUUUCUCCUCCAGCCAGGGUUGCUAGAGCUCAAGGGCACAGUGAUAGGCACCUGGGCAUAAAGGACC	2.8
UUUUCUUGUAAAUGUGUUGGACAAAUGUGAAGAUGCAUUGUAGUUUAACCAUAUGCCCACAUUUAGUCUCUUUAUUCCUAGUUGGUGAGAAACCUGUAUCUUUCUAUGCU	0.343
CCCUUCUGGUAGAUUUUAAUGAUGCCAUUUUUCCAAAGCCCCCACUGUAAGGUUUCAAAAGCACUGGUAGGCAUAGCAUAGAUGUUCCAGUUACACACUCAGUAAACACU	0.664
UAACCUUUUACUUGGGAAUGUGGUGGCCCAAUGUCAGCUGACCUGAAAGAACAUGGCUACCGUGAGACAGCCCUGUGGGCCCUGCUACCCCUCCUAUUUCUGCCUCCCUG	0.348
CAUGUAUAAACAUUUAGCAUAUUUUUAUCAUAGGUCUAAAAAUAUUUGUUUACUAAAUACCUGUGAAGAAAUACCAUUAAAAAACUAUUUGGUUCUGAAUUCUUACUAGA	0.626
CUCUCCUUGCACCUUCUCCUGCCUCUCCACACUCCAGGUUCCCUCAGGCUUGUGUCCCCACUGCUGCAUCGUGGCGGGGUGUCACAGACCCUCUGCAGCCCCUGGCUGCC	0.586
UUCCACUGUGGGAGAAUACCCAUGGAAUAAGAUAAAAAAUUAAUUCCACACCCUAGUGUGUGUAAGUUCCUCGCUCAUAGGAAAUGCAACAGUUUGAGGGAGCAUUGCCC	0.89
AAGCCCAUUAAUGUGUAACAACAAGUUUAACAGUUAAGAGAGAGUAGCUGUUCACCUUGAAGACAGGCCUUAGUGUCACGCAGGUUUAUUACAGUGGCAUGAUGGUGACC	0.719
CAGUGGGGAGAUCUCAGCUCACUGCAGCCUCUGCCUCCCAAGUUCAAGCGAUUCUCCUGUCUCAGCCUCCCAGGUAGCUGGGAUUAAAGGUGCCCACCACCACACCUGGC	0.389

Series 3
Target: RING finger protein unkempt homolog, zinc fingers 1-6, SBP tag (UNK, Homo sapiens, UniProt Q9C0B0, residues 30-357)
UniProt Q9C0B0, sequence (30-357, looked up): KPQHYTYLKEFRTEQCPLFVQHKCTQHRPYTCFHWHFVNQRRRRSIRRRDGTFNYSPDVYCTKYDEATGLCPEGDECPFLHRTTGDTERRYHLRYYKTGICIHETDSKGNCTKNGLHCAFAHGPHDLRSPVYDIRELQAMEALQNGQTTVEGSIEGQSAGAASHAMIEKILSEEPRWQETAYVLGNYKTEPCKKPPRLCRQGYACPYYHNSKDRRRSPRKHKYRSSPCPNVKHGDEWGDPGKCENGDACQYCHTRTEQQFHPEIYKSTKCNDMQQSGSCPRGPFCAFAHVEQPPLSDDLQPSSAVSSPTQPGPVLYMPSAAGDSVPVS
Technique: RNA Bind-n-Seq
Molecule type: RNA
Medium: in vitro
Concentration: 100 nM
Setting: RNA with constant flanks, vertebrate orthologous sites, ends assumed
Reference: input RNA pool
Reading: higher = stronger binding
All sequences stand within: GGGAGUUCUACAGUCCGACGAUC … CAACAGAGGAUUGAGCAUCA
Oligonucleotide	bound/input enrichment
CAAUUCAAUGGUCGAGGGUUCAGAACUCAAAAAGGUUCGCUCCAACUCCAGAAUUUACCAUAGGUAUUUUUUACUGGACGCCGACAUGCAGAGCCUGAGGUGGGAACCAUCUAAGAAGGA	0.0938 ratio
UAUUUUCUUAUUUUAGGUAUCACUGCCCAAUGCCUAAGAUCUUUUAUGUCCAGCUGACUGUAGGAAAUAAUGAAUUUUUUGGGGAAGGAAAGACUCGACAAGCUGCUAGACACAAUGCUG	1.41 ratio
GAAGAUGGUGGUUGUACAUUAUUUCAUUAGAAAAUAUAAAAAUUCAUUUUGUUUUGAAGCUAGGUAUUAAACUGGAAUAGCUAUUACACCCCUGAGAAUGGGGCAGUUGUGCCCUUCCCU	1.46 ratio
UUUGUUUUUGUUGGAUUUUUUGGUUUUUGGUUUGGUUUUUUUUGUUUUUUUGUUUUUGGUAGUUUGUUGUUACCCACGCCAUUUUACGUCUCCUUCACUGAAGGGCUAGAGUUUUAACUU	1.22 ratio
UAUUGUAUGUAGAGAAUAAUUUUCAUUGGCCCCUAUUGUGAAAUUCCCUAGCAGUUUAUUUAGAAUCUUAAUUUCUCUAAUUCAGGCUCACUGUAUUAGUCAUUUUUAGCUCAUAAUUAA	1.28 ratio
UCUGUAUACUUUUAAAAAUACUUCCAUAUACGACAUGUUGGCUACUCAUACAUUUAAUCAUAUUUACGUAUCUAUUUUUUAUAAUAGCAGUGCAGAUUCAAAGGGGGCUCCUUUCAGGUU	1 ratio
AGAGAUGACCCCCAGUCCCACCUCUGUUUAUUCUGUAAACUACAACCUGUAAAUAAUGGUUAGCAUUCCUAUUGUAACAAAAUUAAUUUUUAUUAAAUAAAUUAUAUUUCCUAGUCUAAU	0.899 ratio
AGGCGUUUACUGCUCAGGUUUAUUUUAAAUGACUAUCAGUCACAUCUAAUUUAUUAUGAAUAUGGUGGUCUUUAAAAUAUGUAUUAUUGAAAUAAUAGUCAAGUUUCUAAUAAUCUAAAC	0.399 ratio
GUCAUCACUGCUUCUUACCACCUCAAUGAGGUGACGCCUCCCACAACACUUUGUUGGUCCUAGGCUAACCUGAUAAAUCUCUCCACAUUUCAUUUUCUUCUUCUACCCUCCCAUUCACCU	1.21 ratio
GCGGGGAUGGCCCCAUCCCACCACUGUUUAUUCUGUAAACUUCAACCUGUACAUAACGUUUAGCAUUCCUAUUGUAACAAAAUUAAUUUUUACAAAAUAAAUUAUAUUUCCUAGUCUAAU	0.632 ratio
ACCUAAAAUUAUAGCAGAAGAGCCAAGCAGUAGCAGUUUUUUUGUAAAUGUAAAAAUAAUUAGAUCCUGACUUUGUUUCCUUCUUCUAUUUUAAAAAUAAAAAAUACCUCAGUGCUAUGU	0.455 ratio

Series 4
Target: NFE2L1, bZIP domain (human)
Technique: DHFR protein complementation
Medium: yeast
Setting: single substitutions, most at no-binding floor
Reference: wild-type JUN-FOS pair
Reading: higher = stronger binding
Starting sequence: JUN, bZIP domain (human); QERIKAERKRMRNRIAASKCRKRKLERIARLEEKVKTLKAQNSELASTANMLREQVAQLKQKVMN; partner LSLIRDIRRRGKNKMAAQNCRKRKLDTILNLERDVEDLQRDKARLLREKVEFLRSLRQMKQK
Variant	binding fitness
S43N	-1.53 natural log
E33Q	-1.34 natural log
E33H	-1.58 natural log
S43H	-1.43 natural log
T37E	-1.57 natural log
I28Y	-1.33 natural log
K36M	-1.34 natural log
E33D	-1.23 natural log
L38E	-1.53 natural log
N42M	-1.47 natural log
E33C	-1.47 natural log
Q41D	-1.45 natural log
T37H	-1.27 natural log
L38T	-1.36 natural log
L31S	-1.4 natural log
V56T	-1.36 natural log
A29C	-1.45 natural log
V35P	-1.5 natural log

Series 5
Target: Prothrombin, mature alpha-thrombin (F2, Homo sapiens, UniProt P00734)
Technique: aptamer microarray, sandwich
Molecule type: DNA with 2'F-ANA
Medium: in vitro
Concentration: 200 nM
Setting: whole 15-mer aptamer, many near background
With: Cy3 exosite-II aptamer, 400 nM
Reading: higher = stronger binding
Oligonucleotide: GGTTGGTGTGGTTGG
Modification	mean fluorescence intensity
2'F-ANA at 2 7 8 9 11 12 13	572 a.u.
2'F-ANA at 1 3 4 5 7 9 12 14 15	50.4 a.u.
2'F-ANA at 2 3 4 5 7 8 9 10 11	57.4 a.u.
2'F-ANA at 2 3 4 5 7 10 11 13 14	46.9 a.u.
2'F-ANA at 5 6 8 10 13 14	48.1 a.u.
2'F-ANA at 2 3 7 8 9 11 12 14 15	527 a.u.
2'F-ANA at 2 5 6 7 8 15	77.9 a.u.
2'F-ANA at 2 4 6 8 12 15	520 a.u.
2'F-ANA at 3 5 6 7 10 12 14 15	53.2 a.u.
2'F-ANA at 1 3 4 7 11 13 15	155 a.u.
2'F-ANA at 3 4 7 9 11 12 14 15	342 a.u.
2'F-ANA at 7	737 a.u.
2'F-ANA at 3 5 6 7 8 9 10 11 12 14	68 a.u.
2'F-ANA at 2 3 5 6 9 10	51.5 a.u.
2'F-ANA at 1 2 7 8 9 11 12 15	302 a.u.
2'F-ANA at 1 3 7 8 13 15	304 a.u.
2'F-ANA at 1 2 6 7 9 10 13 14 15	48.5 a.u.
2'F-ANA at 2 6 8 13 14	128 a.u.
2'F-ANA at 1 2 3 4 5 6 10 11 13	100 a.u.
2'F-ANA at 2 3 4 6 7 9 11 12 13	423 a.u.
2'F-ANA at 1 4 9 11 12 15	201 a.u.
2'F-ANA at 1 2 4 6 7 9 11 12 13 14	48.8 a.u.
2'F-ANA at 2 3 6 7 8 9 11 15	674 a.u.
2'F-ANA at 4 8 9 10 12 13	81.3 a.u.
2'F-ANA at 1 5 7 9 10 11 12 14	44.3 a.u.

Series 6
Target: Histone acetyltransferase KAT6A, winged helix 2, GST fusion (KAT6A, Homo sapiens, UniProt Q92794, residues 85-181)
Technique: protein binding microarray
Molecule type: double-stranded DNA, one strand shown
Medium: in vitro
Concentration: not given
Setting: 8-mer, flanks averaged, mean of 2 arrays, mostly near background
Reference: not given
Reading: higher = stronger binding
Construct (chain): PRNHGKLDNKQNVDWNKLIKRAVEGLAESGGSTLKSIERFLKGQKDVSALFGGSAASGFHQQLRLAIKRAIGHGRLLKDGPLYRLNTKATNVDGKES
Oligonucleotide	E-score
AGCTACCC	-0.0821
CAGTCGGC	0.0627
ACGTTTCC	-0.222
CACGCTGA	0.0855
CGCGCCAA	0.224
CCGACCCA	0.205
AGACACAT	-0.235
GCAACCGC	0.279
CCTCTTCA	-0.1
CAAGGCGA	-0.00806
TGCTAGAA	0.156
GGCGATGA	-0.0772
AGACTTCA	-0.233
GGCTTTGA	0.0703
TACCCGCA	0.228
CGGCATTA	0.148
CGTCCGGC	0.196
CTCTGATC	0.0377
CCAGGGAG	0.0245
TTAACCAA	0.00176
CCCAGTAA	0.029
CATATATA	0.0147
AAAGAGGG	-0.0162
ACTTATCT	-0.0744

A few entries again (series 5):
Modification	mean fluorescence intensity
2'F-ANA at 7	737 a.u.
2'F-ANA at 2 4 6 8 12 15	520 a.u.
2'F-ANA at 1 2 3 4 5 6 10 11 13	100 a.u.
2'F-ANA at 1 2 6 7 9 10 13 14 15	48.5 a.u.
2'F-ANA at 1 2 4 6 7 9 11 12 13 14	48.8 a.u.
2'F-ANA at 1 4 9 11 12 15	201 a.u.
2'F-ANA at 2 3 7 8 9 11 12 14 15	527 a.u.
2'F-ANA at 3 5 6 7 8 9 10 11 12 14	68 a.u.
2'F-ANA at 4 8 9 10 12 13	81.3 a.u.
2'F-ANA at 2 3 4 5 7 10 11 13 14	46.9 a.u.
2'F-ANA at 1 5 7 9 10 11 12 14	44.3 a.u.
2'F-ANA at 2 6 8 13 14	128 a.u.
